Assay results pooled from the literature.
Parts stem from different laboratories: compare values within a part only.

Study 1 — method: protein binding microarray; molecule type: double-stranded DNA, one strand shown; matrix: in vitro; tested at: not given; reference: not given; direction: higher = stronger binding
Target: Histone acetyltransferase KAT6A, winged helix 2, GST fusion (KAT6A, Homo sapiens, UniProt Q92794, residues 85-181)
Setting: 8-mer, flanks averaged, mean of 2 arrays, mostly near background
Construct (chain): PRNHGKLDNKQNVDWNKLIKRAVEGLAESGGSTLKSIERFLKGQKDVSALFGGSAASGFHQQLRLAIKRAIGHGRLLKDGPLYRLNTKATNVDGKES
Oligonucleotide	E-score
AGATAGCC	-0.0849
GGCTTAAA	0.19
CAACGCAC	0.0659
GGTTCCAC	0.0441
ATGCTGGA	0.115
CACAACAC	-0.0601
TGGCGGAA	-0.00664
AGGTTATA	-0.206
CCTCAGTA	-0.108

Study 2 — method: RNA Bind-n-Seq; molecule type: RNA; matrix: in vitro; tested at: 365 nM; reference: no-protein control; direction: higher = stronger binding
Target: RNA binding protein fox-1 homolog 2, RRM domain, GST-SBP tag (RBFOX2, Homo sapiens, UniProt O43251-10, residues 100-194)
Setting: natural RNA segment, single round, ends assumed
Shared flanks, not repeated: GGGAGUUCUACAGUCCGACGAUC … UGGAAUUCUCGGGUGCCAA
Target sequence (chain): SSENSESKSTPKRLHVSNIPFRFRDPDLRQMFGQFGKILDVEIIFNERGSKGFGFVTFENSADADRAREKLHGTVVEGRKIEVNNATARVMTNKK
Oligonucleotide	RBNS enrichment (R)
UUAGGAAAUCCUGCACCGGUUUCUUCGCUAAUUCUUGAAACUGCUCAAGCUUCAUGUAGGGUCAGGGGUGCCUAGGGAUGGCCCCAUCUGCUAUGUAAAUUAGGACUUGC	0.546
CUUCCCUGGUCCCCUCCUUUCUGGCCAUUGUCAUCCAUUUCCCAGUUAGGGCAACAAUGAAGGAGGACCCAGCCAAGCUAGAAGGAAUUUUGUGGAUGGGAGACAGCAGG	0.365
UUUAAUCACUAGCCAAAUUAAAUAAAAGCAUUUAUGAGAACUCUAAACCUUUCUGUAUUUGAGAGAGAUGCAAACUUCUAGAGUAAAAGUUGAAUAAAAAGUCACAGAGG	0.719
CUCCCGGUGAAUAUUAUCAUAGGGCUUUAUUAUAUUCUUGGUCUUCAUUUCUGAUCAAGUAAAUACACCAGCAGUUGUCAUUCAAUGCAGGUUUUUGUACUUAAUUAUAU	0.764
GCGAGCAGCAUCUCUAGGCUCUGGUCCUGUCUGGCCAUGGUGCGCCCGUGGCCCUGCCUCCUAGUGCUCAGGACAGCUCAUUCUCUGUGCAACUUUCAGGAACUUUACUG	2.7
CGAGAAGAACUUGCCCCUGUUCUUACCUAGCUUCUUUGAGUCAGUCAGUGUGCAGAGCUCCUUUCUGGCCACACCUCUGUGAACCCCUAUAUUUUCUGGGACUGGAAGGA	0.834
CUAGGGCUUCCUGGAAGUUAGUUGCCAAAGUCAUGCAAGCAUCACCUGUCAUUCUUGUGUUGGAGUUAUAGAAUUCUACAUCUUAUAAAACCUAACUGGCAUUUAAAAAA	0.621
UGCUAUUAAAUCAUUUAGAAUGUUUACAUUUACUAAGGUGUGCUGGGUCAUGUAAAAUAUUAGACACUAAUAUUUUCAUAGAAAUUAGGCUGGAGAAAGAAGGAAGAAAU	0.345
UUUUUAAAUACUACAAAUUAGUGUCAGGCAGUUCCCAGAAAGAGACAAGAAAUCCUAGUGGCCUCCCAGACUGCAGGGUCCCCAAGGAUGGAAAGGGAAUGUUCUGCUGG	1.57
AAAAUGCCCCAAACUCCAAGGCAGAUUGUCUGUAUAAUACGCUAUAGCUUUUCACCAUGUGGUGUUUACCAGCUGUUACUCUGUAUUUUAAAAAGCCAGAGAUUUCUUCU	0.432
CUGCACACUUUUACUUCUUCCGUCCUUCCUGUCUUUCAAAAUAAAAUCUUAUUUUGGCAAAGGCAAUUUGUUUAGAUGACUUUUUACGGCAACAAAAAGUCCACAUUCCC	0.954
UCUGAGAUCCCCAAGGCCUUUCCUACAUGCCCCCUCCCUUCACAGGGGUACAGAAAUUAUCCCCCUACAACCCCAGCCUCCUGAGGGCUCCAUGCUGAAGGCUCCCAUUU	0.636

Study 3 — target: Sox-I, HMG box (Salpingoeca helianthica); method: Spec-seq; molecule type: double-stranded DNA, one strand shown; matrix: in vitro; tested at: not given; setting: whole probe, mean of replicates; reference: not given; direction: lower = stronger binding; shared flanks, not repeated: GAGTCGTCTCGTCAGCAC … CCGTAGAGCACTCAGGTC
Target sequence (chain): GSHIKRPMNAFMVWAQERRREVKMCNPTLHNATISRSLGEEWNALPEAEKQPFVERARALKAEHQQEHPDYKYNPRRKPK
Oligonucleotide	relative binding energy
CAGCGTT	1.12 ln ratio
CATAGTG	0.0317 ln ratio
CATTTCG	1.1 ln ratio
CATGGAC	0.944 ln ratio
CATTTTT	0.603 ln ratio
CATGCAC	0.756 ln ratio
AGGAGTT	0.519 ln ratio
CTCTGTT	-0.76 ln ratio

Other studies, line by line
Substance	target	test	system	setting	scale	measurement	value
PhoQ, residues 284 288 289 292 302 303 TNASYF	PhoP, residues 12 14 15 18 19 NHTVL (Escherichia coli, UniProt P23836)	Sort-seq, measured: YFP reporter	E. coli	PhoQ-PhoP variant library, added: 10 µM Mg2+	reference: high Mg2+ state, higher = stronger signaling	fold induction	8.74

For quick reference, copied from above (study 1):
Oligonucleotide	E-score
CACAACAC	-0.0601
TGGCGGAA	-0.00664
